Published values pooled from the literature.
Lines come from different studies, so protocols differ. ± marks the error that the study gave.

COc1ccc2c(c1)c(CC(=O)OCC(=O)c1ccccc1)c(C)n2C(=O)c1ccc(Cl)cc1  latency of nociceptive response (hot plate test; BALB/c mice; 100 mg/kg, 60 min): 15.7 ± 0.35 s
[64Cu+2].c1ccc(CNCc2ccc(CN3CCCN4CCNCCCN(CC4)CC3)cc2)nc1  tissue uptake (CXCR4 (human); NOD/SCID mice, U87 xenografts, U87 control tumour; 30 min post-injection): 5.89 ± 7.01 %ID/g
CCCCCCCCCCCCCCCC(=O)NCCCC[C@H](N)C(=O)N[C@@H](CC(=O)O)C(=O)N[C@H](C(=O)N[C@@H](Cc1c[nH]cn1)C(=O)N[C@@H](Cc1ccccc1)C(=O)N[C@@H](CCCNC(=N)N)C(=O)N[C@H](C(=O)N[C@@H](Cc1ccccc1)C(=O)N[C@@H](CCCNC(=N)N)C(=O)N[C@@H](CO)C(=O)N[C@@H](Cc1c[nH]cn1)C(=O)N[C@@H](CO)C(=O)N[C@@H](CC(=O)O)C(=O)N[C@@H](Cc1ccc(O)cc1)C(=O)N[C@@H](CCCNC(=N)N)C(=O)N[C@@H](CCCNC(=N)N)C(=O)N[C@H](C(=O)O)[C@@H](C)CC)[C@@H](C)O)[C@@H](C)O  serum total cholesterol (C57BL/6J mouse, MCD diet; intraperitoneal, 0.6 nmol/g, 3 weeks, 3 times weekly): 62.7 ± 11.1 mg/dL
COC(=O)[C@H](CSSC(C)(C)[C@H](NC(=O)[C@H](CCC(=O)NC[C@H](O)[C@@H](O)[C@H](O)[C@H](O)CO)NC(=O)[C@H](CCC(=O)O)NC(=O)[C@H](CCC(=O)NC[C@H](O)[C@@H](O)[C@H](O)[C@H](O)CO)NC(=O)[C@H](CCC(=O)O)NC(=O)[C@H](CCC(=O)NC[C@H](O)[C@@H](O)[C@H](O)[C@H](O)CO)NC(=O)CC[C@H](NC(=O)c1ccc(NCc2cnc3nc(N)[nH]c(=O)c3n2)cc1)C(=O)O)C(=O)O)NC(=O)CC[C@H](NC(=O)c1ccc(NCc2cnc3nc(N)nc(N)c3n2)cc1)C(=O)O  spleen weight increase (Lewis rat, adjuvant-induced arthritis; subcutaneous, 500 nmol/kg twice weekly × 2, from day 9 after induction): ~55%
CCCCCCCCCCCCCCCC(=O)N[C@@H](CCC(=O)NCCCC[C@H](NC(=O)[C@H](CC(=O)O)NC(=O)[C@H](CO)NC(=O)[C@@H](NC(=O)[C@H](Cc1ccccc1)NC(=O)[C@@H](NC(=O)CNC(=O)[C@H](CCC(N)=O)NC(=O)[C@H](CO)NC(=O)[C@@H](N)Cc1c[nH]cn1)[C@@H](C)O)[C@@H](C)O)C(=O)N[C@@H](CO)C(=O)N[C@@H](CCC(=O)O)C(=O)N[C@@H](Cc1ccc(O)cc1)C(=O)N[C@@H](CC(C)C)C(=O)N[C@@H](CC(=O)O)C(=O)N[C@@H](CO)C(=O)N[C@@H](CCC(=O)O)C(=O)N[C@@H](CCCNC(=N)N)C(=O)N[C@@H](C)C(=O)N[C@@H](CCCNC(=N)N)C(=O)N[C@@H](CC(=O)O)C(=O)N[C@@H](Cc1ccccc1)C(=O)N[C@H](C(=O)N[C@@H](C)C(=O)N[C@@H](Cc1c[nH]c2ccccc12)C(=O)N[C@@H](CC(C)C)C(=O)N[C@@H](CCC(=O)O)C(=O)N[C@@H](C)C(=O)NCC(=O)NCC(=O)O)C(C)C)C(=O)O  food intake reduction (diet-induced obese mouse; subcutaneous, 10 nmol/kg daily, days 0-16; relative to: vehicle): 19%
C[C@@H](O)[C@@H]1NC(=O)[C@H](CCCCN)NC(=O)[C@@H](Cc2ccc(NC(N)=O)cc2)NC(=O)[C@H](Cc2ccc(NC(=O)[C@@H]3CC(=O)NC(=O)N3)cc2)NC(=O)[C@H](NC(=O)[C@H](Cc2ccc(Cl)cc2)NC(=O)CN2CCN(CC(=O)O)CCN(CC(=O)O)CCN(CC(=O)O)CC2)CSSC[C@@H](C(=O)N[C@H](Cc2ccc(O)cc2)C(N)=O)NC1=O [gallium-68 labelled]  SUVmean (PET/CT; human neuroendocrine tumour patients, liver lesions; 60 min): 11 ± 9
CCCCCCCCCC(=O)N[C@@H](Cc1c[nH]c2ccccc12)C(=O)N[C@H](CC(N)=O)C(=O)N[C@@H](CC(=O)O)C(=O)N[C@@H]1C(=O)NCC(=O)N[C@@H](CCCN)C(=O)N[C@@H](CC(=O)O)C(=O)N[C@H](C)C(=O)N[C@@H](CC(=O)O)C(=O)NCC(=O)N[C@H](CO)C(=O)N[C@@H]([C@H](C)CC(=O)O)C(=O)N[C@@H](CC(=O)c2ccccc2N)C(=O)O[C@@H]1C  calcein leakage (mammalian-mimic liposomes; 50 µg/mL, 100 min): 5.2%
Cc1cc(O)c(C=O)c2c1C(=O)Oc1c(CO)c(O)c3c(c1O2)C(O)OC3=O (stereo not drawn)  fasting plasma glucose (streptozotocin-induced diabetic male rats, plasma; 5 mg/kg, 5 weeks): 243 ± 6.44 mg/dL
CC(C)(C)OC(=O)N1CCC[C@H](O)[C@H]1CC(=O)Cn1cnc2cc(Br)c(Cl)cc2c1=O (relative stereo)  translation (luciferase translation; rabbit reticulocyte lysate; concentration not given): inactive
CNc1oc(-c2cccc3ccccc23)nc1C#N  insulin sensitivity (insulin tolerance test; C57BL/6J mice, low-dose STZ diabetes; dose not given, day 18): no effect
O=C(N[C@@H](CC1CCCCC1)C(=O)N[C@@H](C[C@H]1CCNC1=O)C(=O)C(=O)NC1CC1)OCc1cccc(Cl)c1  EC50 (human rhinovirus 51; viral replication; WI-38; 37 °C): 70 ± 10 nM
CCCC[C@@H]1NC(=O)[C@H](Cc2ccc(O)cc2)NC(=O)[C@@H]2CCCN2C(=O)[C@H](CC(=O)O)NC(=O)[C@H](C)NC(=O)[C@H](Cc2ccccc2)NC(=O)[C@@H]2CSCCC(=O)N3CN(CN(C3)C(=O)CCSC[C@@H](C(=O)N[C@@H](C)C(N)=O)NC1=O)C(=O)CCSC[C@H](NC(C)=O)C(=O)N[C@@H](CC(C)(C)C)C(=O)N1CCC[C@H]1C(=O)N[C@@H](CCC(=O)O)C(=O)N[C@H](CCCCNC(=O)CCc1cn(CCOCCOCCOCCN(CCOCCOCCOCCC(=O)N[C@@H](C)C(=O)N[C@@H](CCCCNC(=N)N)C(=O)N[C@@H](CC(=O)O)C(=O)N[C@H]3CSCCC(=O)N4CN5CN(C4)C(=O)CCSC[C@H](NC(=O)[C@H](CC(C)C)NC(=O)[C@@H]4CCCN4C(=O)[C@H](CC(N)=O)NC(=O)[C@H](C(C)C)NC(=O)[C@H](CC(C)C)NC(=O)[C@@H]4C[C@@H](O)CN4C3=O)C(=O)N[C@@H](CC(C)C)C(=O)N[C@@H](Cc3c[nH]cn3)C(=O)N3CCC[C@H]3C(=O)N[C@H](CC(=O)O)C(=O)N[C@@H](Cc3c[nH]c4ccccc34)C(=O)N[C@@H](CCCCNC(=N)N)C(=O)N[C@H](C(N)=O)CSCCC5=O)CCOCCOCCOCCn3cc(CCC(=O)NCCCC[C@H]4NC(=O)[C@H](CCC(=O)O)NC(=O)[C@@H]5CCCN5C(=O)[C@H](CC(C)(C)C)NC(=O)[C@@H](NC(C)=O)CSCCC(=O)N5CN6CN(C5)C(=O)CCSC[C@H](NC(=O)[C@H](Cc5ccc(O)cc5)NC(=O)[C@@H]5CCCN5C4=O)C(=O)N[C@@H](Cc4ccccc4)C(=O)N[C@@H](C)C(=O)N[C@@H](CC(=O)O)C(=O)N4CCC[C@H]4C(=O)N[C@@H](Cc4ccc(O)cc4)C(=O)N[C@@H](CCCC)C(=O)N[C@H](C(=O)N[C@@H](C)C(N)=O)CSCCC6=O)nn3)nn1)C(=O)N1CCC[C@H]1C(=O)N[C@@H](Cc1ccc(O)cc1)C(=O)N2  macrophage score (NanoString; mouse MC-38 tumour, tumour; intravenous, 15 mg/kg, every 3 days x3): increased
CN(C)C(=O)c1ccnc(N2Cc3cn(Cc4ccc(F)cc4F)nc3C2)n1  effect size d (EAE clinical score; mouse EAE model; oral, 2.5 mg/kg daily from day 11, 264 h, unit not given; relative to: vehicle): -1.69
COC(=O)C1OC(Oc2c(-c3ccccc3)oc3cc(O)c(O)c(O)c3c2=O)C(O)C(O)C1O (stereo not drawn)  serum concentration (ELISA, refers to: IL-6; Balb/c mouse, serum; oral, 5 mg/kg, together with: LPS): 134 pg/mL
COc1cc(Cn2ccc3cc(C(=O)NCC45CC6CC(CC(C6)C4)C5)ccc32)ccc1C(=O)NO  GFAP-positive area (immunohistochemistry; 5xFAD mouse, brain; intraperitoneal, 10 mg/kg once daily, 2 months; relative to: vehicle): decreased
C=C(c1cc(F)c(C(=O)O)c(F)c1)c1cc2c(cc1C)C(C)(C)CCC2(C)C  log2 fold change (RNA sequencing, refers to: Ifit3 mRNA; rat, brain; dose not given, 24 h, single dose; relative to: vehicle): -0.88
COc1ccc(C2NC(=O)NC(C)=C2C(C)=O)cc1 (stereo not drawn)  antioxidant potency ratio (DPPH radical scavenging; relative to: gallic acid): ~2 fold
CC(=O)[O-].O.O.O.O.[Co+2].[O-]c1ccc(Br)cc1C=NCCN1CCOCC1  inhibition (superoxide scavenging; 240 µM): 65.3%
COc1cc(C(=O)OCCCN2CCCN(CCCOC(=O)c3cc(OC)c(OC)c(OCc4ccc([N+](=O)[O-])cc4)c3)CC2)cc(OC)c1OC  duration of PWT increase (von Frey test; mouse, STZ diabetic neuropathy; iv, 30 mg/kg, after third injection): 24 h
CN(C)c1ccc2c(-c3cc(C(=O)N4CCN(CCCOc5ccc6nccc(C(=O)NCC(=O)N7CC(F)(F)C[C@H]7C#N)c6c5)CC4)ccc3C(=O)[O-])c3ccc(=[N+](C)C)cc-3oc2c1  probe signal in immune cells (flow cytometry; mouse B16-F10 tumour, tumour; intravenous, dose not given, 1 h): 20%
CC(C)=CCCC(C)=CCc1cc(-c2coc3cc(OC4OC(C(=O)O)C(O)C(O)C4O)ccc3c2=O)ccc1O (stereo not drawn)  Vmax (glucuronidation, substrate; dog liver microsomes): 3050 ± 284 pmol/min/mg
Cc1nc(C)c(C=[N+]([O-])C(C)(C)C)nc1C  protein level (western blot, refers to: tyrosine hydroxylase; mouse MPTP model, substantia nigra; 30 mg/kg; increase): 28.1%
O=C([O-])CN1CCN(CC(=O)[O-])CCN(CC(=O)NCCc2ccc3c(c2)C2C=CCC2C(c2cc4c(cc2Br)OCO4)N3)CCN(CC(=O)[O-])CC1.[111In+3] (stereo not drawn)  tracer uptake (Hec50 tumour model; host not given, blood; 1 h, tumour-bearing): 2.22 %ID/g
COc1ccc(C2CC(c3ccc(C)cc3)=Nc3ccccc3S2)cc1OC (stereo not drawn)  blood glucose (Wistar rat, STZ-induced diabetes; oral, 10 mg/kg once daily, day 1): 376 ± 4.23 mg/dL
[64Cu+2].c1cnc(CNCc2ccc(CN3CCCN4CCNCCCN(CC4)CC3)cc2)nc1  tissue uptake (CXCR4; NOD/SCID mouse, U87 and U87-stb-CXCR4 xenografts, spleen; iv, 90 min, ex vivo, together with: AMD3465 25 mg/kg sc before tracer): 6.48 ± 2.18 %ID/g
CC[C@H]1[C@@H](O)[C@@H]2[C@H](CC[C@]3(C)[C@@H]([C@H](C)CCOS(=O)(=O)[O-])CC[C@@H]23)[C@@]2(C)CC[C@@H](O)C[C@@H]12.[Na+]  inflammation score (histology; ob/ob NASH mouse model, liver; oral, 3 mg/kg once daily, before treatment, baseline of 8 week study, scale 0 to 3; direction not given): 3
CC(C)c1cnc(-c2cc(Cl)ccc2F)cc1Nc1ccncc1C(=O)NC(CO)CO  duration of response (human; 375 mg): 31 months
C=C(c1ncc(C(=O)O)cn1)c1cc2c(cc1C)C(C)(C)CCC2(C)C  log2 fold change (RNA sequencing, refers to: Cga mRNA; rat, brain; dose not given, 24 h, single dose; relative to: vehicle): 2.71
N#Cc1cnc2cc(OCC3CCNCC3)c(F)cc2c1Nc1cc(F)c(OCc2cccc(Cl)n2)cc1Cl  BrdU incorporation (C57BL/6J mice, diet-induced MASH, partial hepatectomy, liver; dose not given, 72 h after hepatectomy): increased
C=CC(=O)Nc1cccc(-c2cnc3[nH]cc(C(=O)NC(C)(C)C)c3n2)c1  duration of phospho-STAT5 suppression (mouse, NK-S1 xenograft, tumour; ip, 50 mg/kg, up to): 24 h
COC(=O)c1cnc(-c2cnccn2)cc1C(=O)OC.COC(=O)c1cnc(-c2cnccn2)cc1C(=O)OC.O.O.O.O=S(=O)([O-])C(F)(F)F.O=S(=O)([O-])C(F)(F)F.[Cu+2]  quenching rate constant (calf thymus DNA; ethidium bromide displacement): 2.63e+10 M⁻¹ s⁻¹
O=C(O)C1OC(Oc2cccc(-c3nc(N4CCOCC4)c4oc5ncccc5c4n3)c2)C(O)C(O)C1O (stereo not drawn)  Vmax (glucuronide formation; rat liver microsomes): 95.3 ± 2.98 pmol/min/mg
COc1ccc(-c2nnc(COc3cc(-c4nc5ccccc5s4)ccc3OC)o2)cc1OC  minimal effective dose (hind limb tonic extension; albino mouse, MES-induced seizure; ip, 4.0 h): 30 mg/kg

For quick reference, copied from above:
C=C(c1cc(F)c(C(=O)O)c(F)c1)c1cc2c(cc1C)C(C)(C)CCC2(C)C  log2 fold change (RNA sequencing, refers to: Ifit3 mRNA; rat, brain; dose not given, 24 h, single dose; relative to: vehicle): -0.88
C=C(c1ncc(C(=O)O)cn1)c1cc2c(cc1C)C(C)(C)CCC2(C)C  log2 fold change (RNA sequencing, refers to: Cga mRNA; rat, brain; dose not given, 24 h, single dose; relative to: vehicle): 2.71
CCCCCCCCCCCCCCCC(=O)NCCCC[C@H](N)C(=O)N[C@@H](CC(=O)O)C(=O)N[C@H](C(=O)N[C@@H](Cc1c[nH]cn1)C(=O)N[C@@H](Cc1ccccc1)C(=O)N[C@@H](CCCNC(=N)N)C(=O)N[C@H](C(=O)N[C@@H](Cc1ccccc1)C(=O)N[C@@H](CCCNC(=N)N)C(=O)N[C@@H](CO)C(=O)N[C@@H](Cc1c[nH]cn1)C(=O)N[C@@H](CO)C(=O)N[C@@H](CC(=O)O)C(=O)N[C@@H](Cc1ccc(O)cc1)C(=O)N[C@@H](CCCNC(=N)N)C(=O)N[C@@H](CCCNC(=N)N)C(=O)N[C@H](C(=O)O)[C@@H](C)CC)[C@@H](C)O)[C@@H](C)O  serum total cholesterol (C57BL/6J mouse, MCD diet; intraperitoneal, 0.6 nmol/g, 3 weeks, 3 times weekly): 62.7 ± 11.1 mg/dL
CN(C)c1ccc2c(-c3cc(C(=O)N4CCN(CCCOc5ccc6nccc(C(=O)NCC(=O)N7CC(F)(F)C[C@H]7C#N)c6c5)CC4)ccc3C(=O)[O-])c3ccc(=[N+](C)C)cc-3oc2c1  probe signal in immune cells (flow cytometry; mouse B16-F10 tumour, tumour; intravenous, dose not given, 1 h): 20%
CC(=O)[O-].O.O.O.O.[Co+2].[O-]c1ccc(Br)cc1C=NCCN1CCOCC1  inhibition (superoxide scavenging; 240 µM): 65.3%
